Measurements from different studies.
Protocols differ between the studies behind these lines. Numbers after ± are the reported error. Values after ≈ are worked out from the molar mass of the structure shown.

C[N+]1=C2C(c3ccccc3)=[N+]([O-])c3ccccc3N2CCC1
MIC50 (Clostridioides difficile; microbial growth): 16 µg/mL

Cc1cc(C(=O)Nc2nc3cccc(C)c3n2[C@H]2CCCCN(C(=O)/C=C/CN(C)C)C2)ccn1
cells in G1 phase (Trypanosoma brucei; propidium iodide flow cytometry; bloodstream form; concentration not given, 16 h): 33.9%

O=c1n(CCNCCOS(=O)(=O)c2ccccc2)c(=O)n(S(=O)(=O)c2ccccc2)c(=O)n1S(=O)(=O)c1ccccc1
MLC (Proteus mirabilis; broth microdilution): 8 ± 2 µg/mL

CN(C)c1nc(NCc2cccc(-c3ccccc3)c2)c(/N=N/c2ccc(Cl)cc2)c(N(C)C)n1
mortality (Ostrinia furnacalis; leaf dipping; 200 mg/L, 96 h): 76.7 ± 5.8%

CC[C@H](C)CCCCC(=O)N[C@@H](CCN)C(=O)N[C@H](C(=O)N[C@@H](CCN)C(=O)N[C@H]1CCNC(=O)[C@H]([C@@H](C)O)NC(=O)[C@H](CCN)NC(=O)[C@H](CCN)NC(=O)[C@H](CC(C)C)NC(=O)[C@@H](CC(C)C)NC(=O)[C@H](CCN)NC1=O)[C@@H](C)O
MIC fold change (Escherichia coli; daily serial passaging; ATCC 8739; highest sub-MIC, 7 days; relative to: initial MIC): 1.37

Cc1cc(F)ccc1-c1ccc2c(c1)c(CN(C)C)nn2C
cytopathic effect (Rhinovirus A16; viral replication; concentration not given): no effect

CCOC(=O)C1(Cc2ccccc2)Oc2cc(C)ccc2N(Cc2ccccc2)C1=O (stereo not drawn)
inhibition (Setaria viridis; fresh weight, greenhouse postemergence; postemergence, 150 g ai/ha, 21 days): 32.8 ± 2.09%

NCCO.O=C(O)C(Cl)Cl
inhibition (Chenopodium album; herbicidal activity; 15 mg/mL, 21 days, post-emergence greenhouse): 0%

CC(C)[C@H]1NC(=O)[C@H](Cc2ccccc2)NC(=O)[C@@H](C(C)C)NC(=O)[C@@H](C)NC(=O)[C@H](CO)NC(=O)[C@H](Cc2c(-c3ccc(-c4ccc5ccccc5c4)cc3)[nH]c3ccccc23)NC(=O)[C@@H](C)NC1=O
MIC90 (Mycobacterium marinum): > 100 µM

O=S(=O)(c1ccc(-c2ccc3ncnc(Nc4ccc(OCc5cccc(F)c5)c(Cl)c4)c3c2)cc1)N1CCSCC1
inhibition (Trypanosoma cruzi; intracellular amastigote growth; NIH 3T3, Tulahuen, β-galactosidase-expressing; 10 µM, 96 h): 18%

CC[C@H](C)[C@H](NC(=O)[C@H](Cc1ccccc1)NC(=O)[C@H](CCCCN)NC(=O)[C@H](CCCCN)NC(=O)CNC(=O)[C@H](C)NC(=O)[C@H](CC(N)=O)NC(=O)[C@H](CCCCN)NC(=O)[C@H](Cc1ccccc1)NC(=O)[C@H](CC(N)=O)NC(=O)[C@H](CCC(=O)O)NC(=O)[C@H](Cc1c[nH]c2ccccc12)NC(=O)[C@H](CC(C)C)NC(=O)[C@@H](N)CO)C(=O)N[C@@H](CC(C)C)C(=O)N[C@@H](CC(N)=O)C(=O)N[C@H](C(=O)N[C@@H](CC(C)C)C(=O)N[C@@H](CC(=O)O)C(=O)N[C@@H](CCCCN)C(N)=O)[C@@H](C)CC
geometric mean MIC (Gram-negative bacteria): 8 µM

CC[C@H](C)[C@@H]1NC(=O)[C@H](CO)NC(=O)C(C)(CCCCN)NC(=O)[C@@H]2CSSC[C@@H](C(=O)N[C@@H](Cc3ccc(O)cc3)C(N)=O)NC(=O)[C@H](CCCCN)NC(=O)[C@@H]3CSSC[C@H](NC(=O)[C@H](CCCNC(=N)N)NC(=O)C(C)(CC(C)C)NC(=O)[C@H](CC(=O)O)NC(=O)[C@H](CC(=O)O)NC(=O)[C@H](CCC(=O)O)NC(=O)[C@H](CC(N)=O)NC(=O)[C@H](Cc4c[nH]c5ccccc45)NC(=O)C(C)(CC)NC(=O)CNC(=O)[C@H](CC(N)=O)NC(=O)[C@@H](NC(=O)CNC(=O)[C@H](Cc4ccccc4)NC(=O)CN)CSSC[C@H](NC(=O)[C@H](Cc4ccc(O)cc4)NC(=O)CNC(=O)CNC(=O)[C@H](CCCCN)NC(=O)[C@H](Cc4ccc(O)cc4)NC(=O)[C@H]4CCCN4C(=O)[C@@H]4CCCN4C1=O)C(=O)N[C@@H](C)C(=O)N[C@@H](CCCCN)C(=O)N1CCC[C@@H]1C(=O)NCC(=O)N[C@@H](Cc1ccccc1)C(=O)N[C@@H](C(C)C)C(=O)N3)C(=O)N[C@@H](Cc1c[nH]cn1)C(=O)NC(C)(C)C(=O)N[C@@H](Cc1c[nH]cn1)C(=O)N2 (stereo partly drawn)
MBC (Streptococcus pneumoniae; 19F; 24 h): 2 µM (≈ 8.92 µg/mL)

Repeated from above:
CC[C@H](C)[C@H](NC(=O)[C@H](Cc1ccccc1)NC(=O)[C@H](CCCCN)NC(=O)[C@H](CCCCN)NC(=O)CNC(=O)[C@H](C)NC(=O)[C@H](CC(N)=O)NC(=O)[C@H](CCCCN)NC(=O)[C@H](Cc1ccccc1)NC(=O)[C@H](CC(N)=O)NC(=O)[C@H](CCC(=O)O)NC(=O)[C@H](Cc1c[nH]c2ccccc12)NC(=O)[C@H](CC(C)C)NC(=O)[C@@H](N)CO)C(=O)N[C@@H](CC(C)C)C(=O)N[C@@H](CC(N)=O)C(=O)N[C@H](C(=O)N[C@@H](CC(C)C)C(=O)N[C@@H](CC(=O)O)C(=O)N[C@@H](CCCCN)C(N)=O)[C@@H](C)CC
geometric mean MIC (Gram-negative bacteria): 8 µM

CC[C@H](C)[C@@H]1NC(=O)[C@H](CO)NC(=O)C(C)(CCCCN)NC(=O)[C@@H]2CSSC[C@@H](C(=O)N[C@@H](Cc3ccc(O)cc3)C(N)=O)NC(=O)[C@H](CCCCN)NC(=O)[C@@H]3CSSC[C@H](NC(=O)[C@H](CCCNC(=N)N)NC(=O)C(C)(CC(C)C)NC(=O)[C@H](CC(=O)O)NC(=O)[C@H](CC(=O)O)NC(=O)[C@H](CCC(=O)O)NC(=O)[C@H](CC(N)=O)NC(=O)[C@H](Cc4c[nH]c5ccccc45)NC(=O)C(C)(CC)NC(=O)CNC(=O)[C@H](CC(N)=O)NC(=O)[C@@H](NC(=O)CNC(=O)[C@H](Cc4ccccc4)NC(=O)CN)CSSC[C@H](NC(=O)[C@H](Cc4ccc(O)cc4)NC(=O)CNC(=O)CNC(=O)[C@H](CCCCN)NC(=O)[C@H](Cc4ccc(O)cc4)NC(=O)[C@H]4CCCN4C(=O)[C@@H]4CCCN4C1=O)C(=O)N[C@@H](C)C(=O)N[C@@H](CCCCN)C(=O)N1CCC[C@@H]1C(=O)NCC(=O)N[C@@H](Cc1ccccc1)C(=O)N[C@@H](C(C)C)C(=O)N3)C(=O)N[C@@H](Cc1c[nH]cn1)C(=O)NC(C)(C)C(=O)N[C@@H](Cc1c[nH]cn1)C(=O)N2 (stereo partly drawn)
MBC (Streptococcus pneumoniae; 19F; 24 h): 2 µM (≈ 8.92 µg/mL)
